Results collected from several papers.
Every numbered part comes from another study and shows a few of its results, in no order.

Study 1
Target: RNA binding protein fox-1 homolog 2, RRM domain, GST-SBP tag (RBFOX2, Homo sapiens, UniProt O43251-10, residues 100-194)
Method: RNA Bind-n-Seq
Molecule type: RNA
Sample: in vitro
Tested at: 365 nM
Notes: natural RNA segment, single round, ends assumed
Relative to: no-protein control
Reading: higher = stronger binding
Residues (chain): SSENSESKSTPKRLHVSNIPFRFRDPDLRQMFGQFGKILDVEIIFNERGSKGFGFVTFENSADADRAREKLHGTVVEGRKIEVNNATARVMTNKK
| Sequence | RBNS enrichment (R) |
| --- | --- |
| GGGAGUUCUACAGUCCGACGAUCAAGCAUUGCCAUUGAAGGCUUAAUUGACUGAAAUUACUUUAACAUUUUGGAAAUUGUUGUAUAUCACUAAAAGCAUGAAUUGGAACUGCAAUGAAAGUCAAAUUUACUUUUGGAAUUCUCGGGUGCCAA | 2.48 |
| GGGAGUUCUACAGUCCGACGAUCAAAACUUCUUUUAAACCUCACCUUUGUGGGGUUUUUGGAGAAGGUUAUCAAAAAUUUCAUGGAAGGACCACAUUUUAUAUUUAUUGUGCUUCGAGUGACUGACCCCAGUGUGGAAUUCUCGGGUGCCAA | 0.36 |
| GGGAGUUCUACAGUCCGACGAUCCAAGUUCACUUGGCCAGUAACUUAUCUAACAAACUGUUUUACCACACUAUCUUGACACUUGAUAGAAGAGCCUAUUAGGAGUCACAGUGGUUUCGUAGAGUAAAACCCAAUGGAAUUCUCGGGUGCCAA | 0.277 |
| GGGAGUUCUACAGUCCGACGAUCUAAUUCAAAAACACUAUUGAUAUUGAAUACCAGAUACCACUAUGUAGUAAGUCUUUUAGGAUGAUUUUAAUUUAGUCGUGCGUCAUUUUCUGAUUCUCAUCAUUGGGAGAUGGAAUUCUCGGGUGCCAA | 0.466 |

Study 2
Target: Sal-like protein 4, full length isoform B (SALL4, Homo sapiens, UniProt Q9UJQ4-2, residues 1-616)
Method: universal PBM
Molecule type: double-stranded DNA, one strand shown
Sample: in vitro
Tested at: not given
Notes: 8-mer, flanks averaged, mean of replicates
Reading: higher = stronger binding
Construct (chain): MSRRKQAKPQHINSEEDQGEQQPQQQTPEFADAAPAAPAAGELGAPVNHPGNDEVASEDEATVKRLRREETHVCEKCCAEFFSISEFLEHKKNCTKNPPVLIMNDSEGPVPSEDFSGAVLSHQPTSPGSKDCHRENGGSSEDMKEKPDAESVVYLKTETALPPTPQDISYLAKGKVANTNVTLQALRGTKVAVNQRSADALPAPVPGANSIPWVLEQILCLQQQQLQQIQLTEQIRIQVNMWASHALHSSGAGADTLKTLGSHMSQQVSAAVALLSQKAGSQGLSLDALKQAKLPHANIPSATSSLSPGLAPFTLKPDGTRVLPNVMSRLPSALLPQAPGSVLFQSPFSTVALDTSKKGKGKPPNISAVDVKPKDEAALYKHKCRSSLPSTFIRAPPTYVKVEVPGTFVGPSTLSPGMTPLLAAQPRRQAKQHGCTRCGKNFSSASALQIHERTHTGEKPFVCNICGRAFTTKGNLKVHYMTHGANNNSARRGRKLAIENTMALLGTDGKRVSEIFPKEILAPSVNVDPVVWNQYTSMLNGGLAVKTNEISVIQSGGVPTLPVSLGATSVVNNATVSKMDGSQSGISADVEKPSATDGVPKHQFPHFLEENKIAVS
| Sequence | E-score |
| --- | --- |
| AAAAACGG | -0.0327 |
| CAGCGTTC | -0.142 |
| TTAAGGAA | 0.135 |
| ATAGTAAG | 0.184 |
| GGTACAGA | 0.0735 |

Study 3
Target: Prothrombin, mature alpha-thrombin (F2, Homo sapiens, UniProt P00734)
Method: aptamer microarray, sandwich
Molecule type: DNA with 2'F-ANA
Sample: in vitro
Tested at: 200 nM
Notes: whole 15-mer aptamer, many near background
With: Cy3 exosite-II aptamer, 400 nM
Reading: higher = stronger binding
Sequence: GGTTGGTGTGGTTGG
| Modification | mean fluorescence intensity [a.u.] |
| --- | --- |
| 2'F-ANA at 6 11 13 | 383 |
| 2'F-ANA at 4 5 7 9 13 | 50.8 |
| 2'F-ANA at 1 2 5 7 8 11 12 13 14 | 51.6 |
| 2'F-ANA at 1 5 7 8 9 10 13 14 | 47.1 |
| 2'F-ANA at 1 6 7 9 10 11 12 14 | 45 |

Mixed results
| Substance | target | test | system | setting | scale | endpoint | value |
| --- | --- | --- | --- | --- | --- | --- | --- |
| PhoQ, residues 284 288 289 292 302 303 HSYLQF | PhoP, residues 12 14 15 18 19 NQCAL (Escherichia coli, UniProt P23836) | Sort-seq, item: YFP reporter | E. coli | PhoQ-PhoP variant library, with: 10 µM Mg2+ | relative to: high Mg2+ state, higher = stronger signaling | fold induction | 5.34 |

For quick reference, copied from above (study 3):
| Modification | mean fluorescence intensity [a.u.] |
| --- | --- |
| 2'F-ANA at 1 2 5 7 8 11 12 13 14 | 51.6 |
